Assay results collected from several papers.
Numbered parts are unrelated; each lists some results of a single study. Positions count from the first letter of the parent shown.

Sample 1
Target: Histone acetyltransferase KAT6A, both winged helices, GST fusion (KAT6A, Homo sapiens, UniProt Q92794, residues 1-181)
Technique: protein binding microarray
Form: double-stranded DNA, one strand shown
Sample: in vitro
Concentration: not given
Setting: 8-mer, flanks averaged, mean of 2 arrays, mostly near background
Reference: not given
Direction: higher = stronger binding
Target sequence (chain): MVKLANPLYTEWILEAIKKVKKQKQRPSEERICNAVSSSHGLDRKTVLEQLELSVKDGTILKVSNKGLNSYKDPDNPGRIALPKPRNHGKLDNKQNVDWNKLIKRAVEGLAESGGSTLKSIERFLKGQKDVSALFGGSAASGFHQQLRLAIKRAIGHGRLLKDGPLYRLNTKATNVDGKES
Sequence | E-score
CGTCTGGA | 0.00218
AACGGCAC | 0.247
CCTTCGAA | -0.073
AACGCGCA | 0.268
ACCATGAG | -0.0616
AGCGGCTG | 0.247
CCGCTGCG | 0.275
GCACGTCA | -0.0302
ATGTGTGC | -0.0968
AGCGAGCG | 0.181
GGACAATA | 0.0114
CGCAGTTA | 0.188
ATACACAC | 0.00357
CGTACCAG | -0.0841
CGATGTAG | -0.0853
AGCGCCGG | 0.328
ACTTTAAT | -0.197
GGCAATAC | 0.0871
AACCCAAA | -0.14
CTGTATCC | -0.0437
CACCCCCA | -0.228
GGTAATAC | -0.101
AATTAATA | -0.0544
ATGACAGA | -0.115
AATGGACA | -0.156

Sample 2
Target: Sal-like protein 4, full length isoform A (SALL4, Homo sapiens, UniProt Q9UJQ4, residues 1-1053)
UniProt Q9UJQ4, sequence (whole entry, looked up): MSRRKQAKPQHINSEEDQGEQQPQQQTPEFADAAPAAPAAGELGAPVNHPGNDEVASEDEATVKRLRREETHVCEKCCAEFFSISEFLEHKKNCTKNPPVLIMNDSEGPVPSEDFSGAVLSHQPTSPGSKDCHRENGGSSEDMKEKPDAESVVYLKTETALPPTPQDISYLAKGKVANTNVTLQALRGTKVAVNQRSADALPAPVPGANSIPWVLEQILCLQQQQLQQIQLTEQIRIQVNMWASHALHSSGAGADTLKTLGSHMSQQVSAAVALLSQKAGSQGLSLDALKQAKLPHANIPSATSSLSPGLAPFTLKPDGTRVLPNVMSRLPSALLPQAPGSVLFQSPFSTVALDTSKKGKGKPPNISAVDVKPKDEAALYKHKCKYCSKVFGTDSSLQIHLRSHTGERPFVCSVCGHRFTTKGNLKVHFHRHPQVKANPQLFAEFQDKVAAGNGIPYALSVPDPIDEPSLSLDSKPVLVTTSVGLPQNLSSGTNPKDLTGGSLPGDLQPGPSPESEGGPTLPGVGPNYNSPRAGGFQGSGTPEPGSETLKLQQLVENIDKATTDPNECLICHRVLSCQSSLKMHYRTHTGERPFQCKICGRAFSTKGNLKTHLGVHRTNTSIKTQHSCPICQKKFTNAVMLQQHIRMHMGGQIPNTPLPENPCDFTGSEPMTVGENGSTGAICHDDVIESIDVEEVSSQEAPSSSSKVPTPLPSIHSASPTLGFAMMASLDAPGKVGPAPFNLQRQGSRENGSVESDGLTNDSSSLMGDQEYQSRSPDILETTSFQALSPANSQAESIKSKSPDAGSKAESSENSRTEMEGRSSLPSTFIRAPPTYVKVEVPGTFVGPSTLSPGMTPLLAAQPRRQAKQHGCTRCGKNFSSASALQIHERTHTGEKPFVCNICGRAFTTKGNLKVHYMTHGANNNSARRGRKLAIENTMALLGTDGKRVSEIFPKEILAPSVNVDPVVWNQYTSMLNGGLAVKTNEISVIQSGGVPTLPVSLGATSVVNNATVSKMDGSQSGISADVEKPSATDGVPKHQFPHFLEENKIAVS
Technique: universal PBM
Form: double-stranded DNA, one strand shown
Sample: in vitro
Concentration: 600 nM
Setting: 8-mer, flanks averaged, mean of replicates
Direction: higher = stronger binding
Sequence | E-score
ATTCGAGC | 0.00904
ACTCAAGG | 0.00183
CTGGGCAC | -0.289
CTACGGCC | -0.319
CAATGCTA | 0.151
GCGACTAA | 0.0225
AATAGACC | 0.0784
GAATAACC | 0.133
TCGTGTCA | -0.0711
TCTATTAA | 0.324
ACATTTCG | 0.133
ACGCTACT | -0.0112
AACCCGTA | -0.0636
GCACTGGA | -0.176
GACTGGGA | -0.183
ACGCGTAC | -0.0686
GCCGCAGA | -0.234
CCTCCGAA | -0.238
CACGCAAC | -0.0388
AAAGACGC | -0.126
GTGGAAGA | 0.0255
GATCCCAC | -0.117
AGACAAGG | -0.236

Sample 3
Target: CCND3, cyclin fold, Cln2 fusion (human)
Technique: yeast growth competition, sequencing
Sample: yeast
Setting: weak parent motif
Reference: not given
Direction: higher = stronger binding
Parent: SAMHD1 docking peptide (human); ASKSRVQLFKDDP
Substitution | normalised enrichment score
S2N | 0.164
F9A | 0.0566
R5S | -0.112
K10R | 0.0873
V6H | -0.0438
F9H | 0.186
K10P | 0.0601
K3Q | -0.128
K3H | 0.0351
D12Q | 0.0896
D11T | 0.695
V6P | -0.251
V6I | -0.396
D11R | -0.198
F9K | -0.06
V6E | -0.0294

Sample 4
Target: RNA binding protein fox-1 homolog 2, RRM domain, GST-SBP tag (RBFOX2, Homo sapiens, UniProt O43251-10, residues 100-194)
Technique: RNA Bind-n-Seq
Form: RNA
Sample: in vitro
Concentration: 365 nM
Setting: natural RNA segment, single round, ends assumed
Reference: no-protein control
Direction: higher = stronger binding
Target sequence (chain): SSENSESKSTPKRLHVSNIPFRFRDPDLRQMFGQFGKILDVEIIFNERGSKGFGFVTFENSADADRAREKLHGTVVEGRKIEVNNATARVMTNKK
Sequence | RBNS enrichment (R)
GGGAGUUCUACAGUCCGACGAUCGUUAUGCCAGUGGAUCUCACGCCUCUGUGCAUCACCUAUCUUUGGUUUGUGAAGGCAGCAGUUAAGGGCACAAAGACAGCCAUGGGGACAUUUAUGUAAAUAUGUUUAAUUGGAAUUCUCGGGUGCCAA | 0.364
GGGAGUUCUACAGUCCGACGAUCUAUAAAAAGCAGAUAGAUGGCGCUAUGUUUGAUUCCUACAACGAAAUUAUCACCAGCUUUUUUUCAUUCUUAACUCUUUAAAGGAUUCAAACGCAACUCAAAUCUGUGCUUGGAAUUCUCGGGUGCCAA | 1.04
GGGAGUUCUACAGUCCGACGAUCUGAGUCACUCAUAAUUAAUUGCCAAAAAAGCAUUUUAUACAUUGAGUUGGGGGGUAGUGGAUCUUAGUGUGGUGUUGCAUGGAGGGGCGAGAUUUUAUAUUUAUAAUCAAUGGAAUUCUCGGGUGCCAA | 8.51
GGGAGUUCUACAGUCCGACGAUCUUGAAAUUUAACCCUGCUCCAUAUUCUAACCUGUUAUGCAGGUACACUGUUAUCUUGCCCUGUGUCUCAAUCCUGGUUGUCUAAGUUGGGACACCUGAGUCUCUUCCUCUUGGAAUUCUCGGGUGCCAA | 0.819
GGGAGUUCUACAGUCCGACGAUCACAUGCCCCACUCACACUAAAUCCCAGACCACACUGCCUGUUUCCCUUCUGAGGCCACAGGCAGGGCAGCUUAGUUCACCGCAGUCCGUACCUUGGAUAAGGGGCCUCACUGGAAUUCUCGGGUGCCAA | 0.365
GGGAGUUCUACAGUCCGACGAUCUACCCUAGUGGUGGCGGUCAAGCUAACAAGUGUGAAAAUGCCUUUGGCAUUUUUAAAAAAGUGCAAUCAAUAAAGCAGAGUUCUGUCAAGAAUGAGUAAGUUAACAGCCAUGGAAUUCUCGGGUGCCAA | 0.307
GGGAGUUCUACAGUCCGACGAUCUUAACUCCGUAAAAAGUGAUUCAGUGGACCGAAGAGGCUCAGAGGGCAGGGGAUGGUGGGGUGAGGCAGAGCACUGUCACCUGCCAGGCAUGGGAGGUCCUGCCAUCCGGUGGAAUUCUCGGGUGCCAA | 1.09
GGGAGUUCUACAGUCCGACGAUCAGCUUUUCUCCAUCCGCAGACAGCCCUGUUCAGAGAGUACCGAGCACCAGCCCUGUGCGGCUUCCUCAUCCCCACCUCACCCCCAACCACUACUGUAGGGCACAAUGACUUGGAAUUCUCGGGUGCCAA | 0.384
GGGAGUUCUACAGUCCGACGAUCUCUUUUGAUCAUAUCAAGCUAGGAUAGAAGGGGGGCUAUUUUAAAUGUCAAGGUCAGCAGUGUUACUUUGAAUGUAAACUGGUAUAAUAGGUAGUUUUCUAUAGUAACUUUGGAAUUCUCGGGUGCCAA | 0.556
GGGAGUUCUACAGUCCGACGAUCCUUAUUAAAUAAAAAUAUAAAAAUAUGUACAUUACAUUUUGCUUAUUUUCAUAUAAAAGGUAAGAAAGAGUUUGCAAAGCAUUUGUGGCUUUUUGUAGUUUACUUAAGCCUGGAAUUCUCGGGUGCCAA | 0.406
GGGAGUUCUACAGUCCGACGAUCACAGGUAUGAGCCACCAUGCCCGGCUGGCAGUUGUAUUUUUUAAAGCCCUUCUGAUGAUUCCAAUGUGUUGGAAAGUUUACCUUGUCUCAGAUGUAACUGGUAAAGGCUGUGGAAUUCUCGGGUGCCAA | 0.623
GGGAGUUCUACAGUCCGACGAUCACCUCCUGGCUUCAACUGGGUGAGGGCCGUAUUCCUGCCACUCUGCUCCGCCUCAGCCUUGAGAACUCCACGUGGGCUGGGUGGGAAGGUGCUGACGAUUUUCACACUGUUGGAAUUCUCGGGUGCCAA | 0.39

A few entries again (sample 1):
Sequence | E-score
GCACGTCA | -0.0302
ATGTGTGC | -0.0968
AGCGAGCG | 0.181
GGACAATA | 0.0114
CGCAGTTA | 0.188
ATACACAC | 0.00357
